Published values from different studies.
Parts stem from different laboratories: compare values within a part only. Substitutions count along the parent as printed.

Sample 1 — technique: protein-binding microarray; form: double-stranded DNA, one strand shown; sample: in vitro; concentration: 250 nM; setting: 60-bp whole probe; added: salmon DNA 0.4 mg/ml; reference: random background probes; direction: higher = stronger binding; shared flanks, not repeated: GCCTAGCAC … GTCTTGATTCGCTTGACGCTGCTG
Target: Interferon regulatory factor 5, full length, phosphomimetic (IRF5, Homo sapiens, UniProt Q13568-2, residues 1-514, K96S/S451D/S453D/S456D/S462D)
Sequence	log fluorescence
TCAGCTCTGTTGCCTGGTACTGTGCTA	-0.547 z-score
GACGTACTGCTTATCCTGACGTGCTAG	-0.111 z-score
GACGATATCAGGTTTCGAGACGTGCTA	3.14 z-score
TTAGGTATCGGGTATCGATTAGTGCTA	6.42 z-score
GACGATCTCAGCATCGAGACGTGCTAG	-0.224 z-score
TTAGGTTTCGACTTTAGGTTAGTGCTA	6.72 z-score

Sample 2 — target: CCNE1, cyclin fold, Cln2 fusion (human); technique: yeast growth competition, sequencing; sample: yeast; setting: strong parent motif; reference: not given; direction: higher = stronger binding
Starting sequence: CDC25A docking peptide (human); PPHRRRLLFACSP
Variant	normalised enrichment score
PPHKRRLLFACSP [R4K]	1.96
PPMRRRLLFACSP [H3M]	0.712
PPHRRRLLFACSR [P13R]	0.681
PPHRRRLLFACNP [S12N]	1.54
PPHRRRLLTACSP [F9T]	1.15
PPHERRLLFACSP [R4E]	0.204
PIHRRRLLFACSP [P2I]	1.07
PPHQRRLLFACSP [R4Q]	1.08
PPHRRRLLFAESP [C11E]	2.58
PPHRRRLKFACSP [L8K]	1.27

Sample 3 — target: XBP1, bZIP domain (human); technique: DHFR protein complementation; sample: yeast; reference: wild-type JUN-FOS pair; direction: higher = stronger binding
Setting: single substitutions, most at no-binding floor
Starting sequence: JUN, bZIP domain (human); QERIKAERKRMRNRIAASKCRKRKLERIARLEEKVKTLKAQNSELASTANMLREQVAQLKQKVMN; partner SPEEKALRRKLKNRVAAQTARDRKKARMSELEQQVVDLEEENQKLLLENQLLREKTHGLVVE
Variant	binding fitness [natural log]
S47Q	-0.484
K39N	-1.25
L52D	-1.48
A49P	-1.43
V56G	-1.23
V35I	-0.527
L38I	-1.2
I28V	-1.05
Q41L	-0.776
V35E	-1.4

Further values, each from its own experiment
Substance	target	assay	test system	setting	scale	endpoint	result
PhoQ, residues 284 288 289 292 302 303 AANNSF	PhoP, residues 12 14 15 18 19 AWHSL (Escherichia coli, UniProt P23836)	Sort-seq, refers to: YFP reporter	E. coli	PhoQ-PhoP variant library, added: 10 µM Mg2+	reference: high Mg2+ state, higher = stronger signaling	fold induction	1.15

Some of these lines once more (sample 3):
Variant	binding fitness [natural log]
L52D	-1.48
